Results from different studies.
Protocols differ between the studies behind these lines. Several values in a cell are separate wells, animals, samples, runs or records.
MYO3B: Myosin-IIIb (MYO3B, Homo sapiens, UniProt Q8WXR4)
Sequence of UniProt P43354 (whole entry, looked up): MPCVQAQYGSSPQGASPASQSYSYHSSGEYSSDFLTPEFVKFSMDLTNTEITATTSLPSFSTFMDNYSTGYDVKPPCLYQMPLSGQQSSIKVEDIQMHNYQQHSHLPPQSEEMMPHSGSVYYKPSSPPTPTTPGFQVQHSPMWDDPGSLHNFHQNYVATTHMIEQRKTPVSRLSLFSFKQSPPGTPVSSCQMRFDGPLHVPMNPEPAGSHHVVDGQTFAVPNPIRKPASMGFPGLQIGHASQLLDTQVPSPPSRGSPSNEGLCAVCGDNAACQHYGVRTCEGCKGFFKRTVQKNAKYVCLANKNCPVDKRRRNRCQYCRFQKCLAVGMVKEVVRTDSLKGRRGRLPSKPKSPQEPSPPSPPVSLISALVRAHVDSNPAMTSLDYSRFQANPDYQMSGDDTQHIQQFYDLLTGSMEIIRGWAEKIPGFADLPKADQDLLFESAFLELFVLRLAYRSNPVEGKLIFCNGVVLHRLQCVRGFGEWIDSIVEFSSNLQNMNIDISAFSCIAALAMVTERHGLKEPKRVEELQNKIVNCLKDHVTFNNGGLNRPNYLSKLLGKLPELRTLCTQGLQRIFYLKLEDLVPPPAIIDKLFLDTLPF
Sequence of UniProt Q8WXR4 (whole entry, looked up): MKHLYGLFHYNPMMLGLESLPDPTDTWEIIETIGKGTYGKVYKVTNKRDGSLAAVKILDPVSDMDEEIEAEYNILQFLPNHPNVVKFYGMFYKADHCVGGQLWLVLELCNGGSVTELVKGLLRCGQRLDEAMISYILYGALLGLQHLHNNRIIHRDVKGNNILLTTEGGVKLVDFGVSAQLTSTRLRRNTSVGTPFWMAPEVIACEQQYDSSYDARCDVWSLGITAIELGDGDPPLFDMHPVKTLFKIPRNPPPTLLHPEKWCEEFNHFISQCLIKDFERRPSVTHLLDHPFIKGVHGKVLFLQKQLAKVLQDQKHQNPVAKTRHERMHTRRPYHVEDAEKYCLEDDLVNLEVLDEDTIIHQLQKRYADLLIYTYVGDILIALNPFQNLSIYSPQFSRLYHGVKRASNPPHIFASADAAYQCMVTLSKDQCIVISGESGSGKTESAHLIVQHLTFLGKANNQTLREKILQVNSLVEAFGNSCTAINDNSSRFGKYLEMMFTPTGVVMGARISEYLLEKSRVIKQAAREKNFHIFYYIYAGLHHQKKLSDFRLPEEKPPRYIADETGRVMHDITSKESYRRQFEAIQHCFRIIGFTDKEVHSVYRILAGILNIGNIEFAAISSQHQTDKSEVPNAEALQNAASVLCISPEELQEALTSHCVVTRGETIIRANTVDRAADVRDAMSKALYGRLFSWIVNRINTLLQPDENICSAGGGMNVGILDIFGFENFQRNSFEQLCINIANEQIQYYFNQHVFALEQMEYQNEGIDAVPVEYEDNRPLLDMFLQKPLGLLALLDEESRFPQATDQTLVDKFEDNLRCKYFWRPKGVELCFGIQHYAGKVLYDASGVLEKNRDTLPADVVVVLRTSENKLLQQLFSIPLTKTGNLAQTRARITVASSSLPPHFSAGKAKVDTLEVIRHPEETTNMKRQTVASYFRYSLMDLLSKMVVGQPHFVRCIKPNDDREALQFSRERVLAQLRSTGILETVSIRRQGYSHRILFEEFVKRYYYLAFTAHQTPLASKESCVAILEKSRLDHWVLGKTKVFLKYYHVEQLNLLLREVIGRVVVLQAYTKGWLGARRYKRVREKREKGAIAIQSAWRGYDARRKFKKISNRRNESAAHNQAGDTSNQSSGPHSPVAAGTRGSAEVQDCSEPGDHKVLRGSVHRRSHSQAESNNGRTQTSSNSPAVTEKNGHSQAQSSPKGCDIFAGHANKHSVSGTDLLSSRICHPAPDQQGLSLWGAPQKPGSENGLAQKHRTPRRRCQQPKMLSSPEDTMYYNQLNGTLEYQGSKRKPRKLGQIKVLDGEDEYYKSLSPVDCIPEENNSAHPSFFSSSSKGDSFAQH
Sequence of UniProt P02911 (whole entry, looked up): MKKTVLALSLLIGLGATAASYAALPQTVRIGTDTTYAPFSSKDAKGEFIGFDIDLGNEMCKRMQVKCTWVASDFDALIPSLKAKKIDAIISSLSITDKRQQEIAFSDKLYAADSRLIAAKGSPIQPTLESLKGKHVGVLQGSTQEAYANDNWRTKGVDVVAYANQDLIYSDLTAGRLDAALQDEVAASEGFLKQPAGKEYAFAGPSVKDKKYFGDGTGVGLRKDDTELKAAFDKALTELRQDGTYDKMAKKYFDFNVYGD
Sequence of UniProt Q13873 (whole entry, looked up): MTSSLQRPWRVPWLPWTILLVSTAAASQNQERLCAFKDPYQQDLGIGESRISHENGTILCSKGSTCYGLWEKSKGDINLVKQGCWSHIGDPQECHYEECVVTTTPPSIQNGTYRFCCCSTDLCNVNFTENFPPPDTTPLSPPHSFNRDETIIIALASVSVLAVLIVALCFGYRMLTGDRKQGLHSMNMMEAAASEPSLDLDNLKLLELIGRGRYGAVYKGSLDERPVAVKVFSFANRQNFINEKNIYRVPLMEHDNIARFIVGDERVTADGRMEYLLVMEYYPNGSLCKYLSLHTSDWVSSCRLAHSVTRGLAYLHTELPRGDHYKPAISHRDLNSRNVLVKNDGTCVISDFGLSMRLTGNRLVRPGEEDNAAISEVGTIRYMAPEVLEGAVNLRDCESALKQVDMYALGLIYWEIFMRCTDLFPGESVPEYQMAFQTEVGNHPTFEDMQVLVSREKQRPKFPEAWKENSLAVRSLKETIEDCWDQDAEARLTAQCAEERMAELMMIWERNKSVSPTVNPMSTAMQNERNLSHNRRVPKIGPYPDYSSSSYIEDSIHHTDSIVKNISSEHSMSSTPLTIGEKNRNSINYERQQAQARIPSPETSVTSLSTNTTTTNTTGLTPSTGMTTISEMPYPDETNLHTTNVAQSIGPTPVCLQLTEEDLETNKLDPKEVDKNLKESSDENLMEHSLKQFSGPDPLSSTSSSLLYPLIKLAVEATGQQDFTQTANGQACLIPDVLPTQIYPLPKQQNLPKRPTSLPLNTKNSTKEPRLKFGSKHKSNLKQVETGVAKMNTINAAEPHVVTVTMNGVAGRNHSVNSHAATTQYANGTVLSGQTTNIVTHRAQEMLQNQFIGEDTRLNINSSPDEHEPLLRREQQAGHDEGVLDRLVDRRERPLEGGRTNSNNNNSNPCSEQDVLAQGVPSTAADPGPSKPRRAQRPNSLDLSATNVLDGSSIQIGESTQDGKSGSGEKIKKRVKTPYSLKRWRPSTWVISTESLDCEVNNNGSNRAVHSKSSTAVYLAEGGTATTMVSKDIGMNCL
Sequence of UniProt Q91Y77 (whole entry, looked up): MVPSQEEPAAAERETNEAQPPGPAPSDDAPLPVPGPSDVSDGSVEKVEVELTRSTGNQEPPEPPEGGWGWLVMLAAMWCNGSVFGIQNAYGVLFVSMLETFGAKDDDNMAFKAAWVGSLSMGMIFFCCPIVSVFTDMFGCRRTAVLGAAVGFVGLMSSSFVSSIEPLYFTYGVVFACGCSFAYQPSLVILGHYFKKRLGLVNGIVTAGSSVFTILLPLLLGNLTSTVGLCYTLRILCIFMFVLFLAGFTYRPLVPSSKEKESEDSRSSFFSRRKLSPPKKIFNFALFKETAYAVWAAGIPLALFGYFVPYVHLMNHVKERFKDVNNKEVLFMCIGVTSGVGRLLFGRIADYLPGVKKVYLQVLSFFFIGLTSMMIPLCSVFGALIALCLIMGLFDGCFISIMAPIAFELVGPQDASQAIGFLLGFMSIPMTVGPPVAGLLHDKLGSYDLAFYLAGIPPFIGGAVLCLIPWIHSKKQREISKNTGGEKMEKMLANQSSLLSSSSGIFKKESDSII
Sequence of UniProt P25440 (whole entry, looked up): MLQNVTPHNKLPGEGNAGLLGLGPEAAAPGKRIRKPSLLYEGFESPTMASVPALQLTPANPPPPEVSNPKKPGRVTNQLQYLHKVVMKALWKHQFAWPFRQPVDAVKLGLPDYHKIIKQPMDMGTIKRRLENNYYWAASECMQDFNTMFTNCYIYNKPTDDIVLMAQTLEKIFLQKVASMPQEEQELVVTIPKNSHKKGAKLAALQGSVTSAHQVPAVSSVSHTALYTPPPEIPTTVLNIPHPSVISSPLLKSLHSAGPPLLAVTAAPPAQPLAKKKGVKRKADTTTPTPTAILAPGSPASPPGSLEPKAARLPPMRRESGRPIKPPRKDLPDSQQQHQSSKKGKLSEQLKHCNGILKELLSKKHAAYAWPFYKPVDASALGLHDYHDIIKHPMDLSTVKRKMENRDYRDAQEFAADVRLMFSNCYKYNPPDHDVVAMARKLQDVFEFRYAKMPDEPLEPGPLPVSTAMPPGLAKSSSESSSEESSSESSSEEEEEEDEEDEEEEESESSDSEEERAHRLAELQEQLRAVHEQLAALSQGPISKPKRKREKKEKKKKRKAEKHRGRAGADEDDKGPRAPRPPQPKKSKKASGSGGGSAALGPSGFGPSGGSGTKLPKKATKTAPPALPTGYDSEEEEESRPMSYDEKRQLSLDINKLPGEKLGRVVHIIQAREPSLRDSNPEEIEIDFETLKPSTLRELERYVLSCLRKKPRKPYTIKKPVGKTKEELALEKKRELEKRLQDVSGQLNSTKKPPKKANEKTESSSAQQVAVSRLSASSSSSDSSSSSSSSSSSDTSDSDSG
Sequence of UniProt Q7CTU0 (whole entry, looked up): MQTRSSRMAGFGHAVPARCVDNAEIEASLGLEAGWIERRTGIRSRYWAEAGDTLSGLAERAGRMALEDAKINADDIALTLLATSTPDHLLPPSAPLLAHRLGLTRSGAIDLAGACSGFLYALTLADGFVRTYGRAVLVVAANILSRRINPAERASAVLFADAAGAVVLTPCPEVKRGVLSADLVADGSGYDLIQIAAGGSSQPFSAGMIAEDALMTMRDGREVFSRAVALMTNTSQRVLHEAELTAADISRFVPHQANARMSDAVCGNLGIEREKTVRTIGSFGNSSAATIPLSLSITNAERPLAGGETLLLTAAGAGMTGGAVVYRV

Cc1cc([C@@H](C)Nc2ccccc2C(=O)O)c2nc(N3CCC(F)(F)CC3)c(C#N)c(=O)n2c1 — remaining binding (BMPR2 (Homo sapiens, UniProt Q13873); binding, competition with immobilised ligand; 10 µM): 41%
Nc1nc2c(ncn2[C@@H]2O[C@H](COP(=O)(O)OP(=O)(O)O)[C@@H](O)[C@H]2O)c(=O)[nH]1 — Kd (GUK1 (Homo sapiens, UniProt Q16774); binding, ITC): 26000 nM
CCCN1CCN(c2ccc(-c3cncc(Cl)c3N3CCC4(CCNC4=O)CC3)cc2)CC1 — Kd (CDC42BPA (Homo sapiens, UniProt Q5VT25); cell-free assay; lysate): 2040 nM
COc1cc(-c2cncc3c2CN(C)Cc2cc(N4CCNCC4)ccc2-3)cc(OC)c1OC — remaining activity (MYO3B; enzyme activity, inhibitor; 1 µM): 104%
Cc1cnc(-c2ccc(-c3ccc(NC(=O)Nc4c(F)cc(F)cc4F)cc3F)c3c2C(=O)NC3)[nH]1 — Kd (MAP2K4 (Homo sapiens, UniProt P45985); binding, competition with immobilised ligand): 11 nM
CCCCC(=O)Nc1ccc(-c2ccc3ncn(CCC)c(=O)c3c2)cn1 — remaining binding (EPHB4 (Homo sapiens, UniProt P54760); binding, competition with immobilised ligand; 0.5 µM): 100%
CC(=O)N[C@H](C(=O)N1C[C@H](O)C[C@H]1C(=O)NCc1ccc(-c2scnc2C)cc1)C(C)(C)SCCCCCCNC(=O)C[C@@H]1N=C(c2ccc(Cl)cc2)c2c(sc(C)c2C)-n2c(C)nnc21 — Kd (Bromodomain-containing protein 4, BD1 (BRD4, Homo sapiens, UniProt O60885); binding, ITC): 75 nM
CCCc1nc2c(C)cc(-c3nc4ccccc4n3C)cc2n1Cc1ccc(-c2ccccc2C(=O)O)cc1 — Kd (PPARG (Homo sapiens, UniProt P37231); binding, ITC): 7960 nM
N=C(N)NCCC[C@H](N)C(=O)O — Kd (argT (Salmonella enterica, UniProt P02911); binding, ITC): 20.8 nM and 10.2 nM
CCCOc1ccc(-c2ccc(C#N)cc2)cc1 — Kd (Monocarboxylate transporter 10 (Rattus norvegicus, UniProt Q91Y77); binding, ITC; pH 7.4): 356 nM
CNc1ncc2c(/C=C/C(=O)N3CCC(OC)CC3)nn(Cc3cccc(C(F)(F)F)c3)c2n1 — remaining activity (SIK2 (Homo sapiens, UniProt Q9H0K1); enzyme activity, inhibitor, radiometric; 1 µM): 101%
Cc1cc(Nc2cc3ncccc3c(N[C@@H]3C[C@H]4CC[C@@H](C3)N4CCC#N)n2)n[nH]1 — Kd (CAMK1D (Homo sapiens, UniProt Q8IU85); binding, competition with immobilised ligand): 110 nM
CC(C)(COP(=O)(O)OP(=O)(O)OC[C@H]1O[C@@H](n2cnc3c(N)ncnc32)[C@H](O)[C@@H]1OP(=O)(O)O)[C@@H](O)C(=O)NCCC(=O)NCCSC(=O)CCCC(=O)O — Kd (bioZ (Agrobacterium fabrum, UniProt Q7CTU0); binding, ITC): 190 nM
C=CC(=O)N1CCC(COCC(=O)N2CCN(c3nc(-c4cnc(N)nc4C(F)F)nc(N4CCOC[C@@H]4C)n3)CC2)CC1 — remaining binding (MYO3B; binding, competition with immobilised ligand; 1 µM): 93%
COCc1nc2cnc3cc(-c4c(C)noc4C)c(OC[C@H]4CCNC4)cc3c2n1[C@H](C)c1ccccc1 — Kd (Bromodomain-containing protein 2, BD1 (BRD2, Homo sapiens, UniProt P25440); binding, SPR): 7.78 nM
CCN1CCN(c2cc(N3CCN(CC)CC3)nc(NCCNc3ccnc4cc(Cl)ccc34)n2)CC1 — Kd (Nuclear receptor subfamily 4 group A member 2 (Homo sapiens, UniProt P43354); binding, ITC): 1500 nM and 2500 nM
